Assay results of several laboratories.
Each numbered part is a random draw from the data of one study; scales do not carry over between parts. Changes are numbered by the printed parent chain.

Sample 1
Target: UBE2J1 UBC core domain (UniProt Q9Y385)
Technique: yeast two-hybrid
Medium: yeast
Setting: mostly zero background
Baseline: not given
Reading: higher = stronger interaction
B1: TRIM26 RING domain (UniProt Q12899); chain PLRSLEEEVTCSICLDYLRDPVTIDCGHVFCRSCTTDVRPISGSRPVCPLCKKPFKKENIRP
B2: TRIM37 RING domain (UniProt O94972); chain SVESIAEVFRCFICMEKLRDARLCPHCSKLCCFSCIRRWLTEQRAQCPHCRAPLQLRELVN
B3: DEF8 RING domain (UniProt Q6ZN54); chain AGRLGCSLTEIHTLFAKHIKLDCERCQAKGFVCELCREGDVLFPFDSHTSVCADCSAVFHRDCYYDNSTTCPKCARLSLRK
B4: ANAPC11 RING domain (UniProt Q9NYG5); chain GICRMAFNGCCPDCKVPGDDCPLVWGQCSHCFHMHCILKWLHAQQVQQHCPMCRQEWKFKE
B5: RNF152 RING domain (UniProt Q8N8N0); chain ETLSQDSLLECQICFNYYSPRRRPKLLDCKHTCCSVCLQQMRTSQKDVRCPWCRGVTKLPPGFS
B6: TRIM22 RING domain (UniProt Q8IYM9); chain VKVDIEKEVTCPICLELLTEPLSLDCGHSFCQACITAKIKESVIISRGESSCPVCQTRFQPGNLRP
B7: TRIM31 RING domain (UniProt Q9BZY9); chain FVNKLQEEVICPICLDILQKPVTIDCGHNFCLKCITQIGETSCGFFKCPLCKTSVRKNAIRF
B8: RNF166 RING domain (UniProt Q96A37); chain GDSGLEAQYTCPICLEVYHRPVAIGSCGHTFCGECLQPCLQVPSPLCPLCRLPFDPKKVDK
B9: MKRN2 RING domain (UniProt Q9H000); chain FAFQASQDKVCSICMEVILEKASASERRFGILSNCNHTYCLSCIRQWRCAKQFENPIIKSCPECRVISEFVIPSV
Construct (chain): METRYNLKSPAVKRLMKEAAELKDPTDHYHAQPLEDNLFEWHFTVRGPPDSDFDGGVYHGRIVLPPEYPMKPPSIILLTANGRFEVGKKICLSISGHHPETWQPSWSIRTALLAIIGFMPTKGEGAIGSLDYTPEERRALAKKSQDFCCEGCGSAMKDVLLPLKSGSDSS
Under “lacZ reporter activity”, `B1 (TRIM26 RING domain)` is recorded as 0.
`B2 (TRIM37 RING domain)` — result for “lacZ reporter activity”: 0.
Under “lacZ reporter activity”, `YPEEVDDDLICHICLQALLDPLDTPCGHTYCTLCLTNFLVEKDFCPMDRKPLVLQHCKK (LNX1 RING domain (UniProt Q8TBB1))` is recorded as 0.
`B3 (DEF8 RING domain)`: “lacZ reporter activity” 0.
`B4 (ANAPC11 RING domain)` — result for “lacZ reporter activity”: 0.
Under “lacZ reporter activity”, `B5 (RNF152 RING domain)` is recorded as 0.
For `B6 (TRIM22 RING domain)`, “lacZ reporter activity” read 0.
`B7 (TRIM31 RING domain)` — result for “lacZ reporter activity”: 0.
`B8 (RNF166 RING domain)`: “lacZ reporter activity” 0.
`B9 (MKRN2 RING domain)`: “lacZ reporter activity” 0.
Under “lacZ reporter activity”, `PEELAVNNDDCAICWDSMQAARKLPCGHLFHNSCLRSWLEQDTSCPTCRMSLNIADNNR (AMFR RING domain (UniProt Q9UKV5))` is recorded as 0.
Under “lacZ reporter activity”, `RYRQMEERITCPICIDSHIRLVFQCGHGACAPCGSALSACPICRQPIRDRIQIF (MIB2 RING domain (UniProt Q96AX9))` is recorded as 0.

Sample 2
Target: ABI1, truncated, D143A, DHFR fusion (Arabidopsis thaliana)
Technique: DHFR PCA, deep sequencing
Medium: yeast
Setting: methotrexate growth selection, single substitutions
Together with: (+)-ABA 710 µM
Baseline: wild-type fitted maximum
Reading: higher = stronger binding
Starting sequence: PYL1, truncated, DHFR fusion (Arabidopsis thaliana); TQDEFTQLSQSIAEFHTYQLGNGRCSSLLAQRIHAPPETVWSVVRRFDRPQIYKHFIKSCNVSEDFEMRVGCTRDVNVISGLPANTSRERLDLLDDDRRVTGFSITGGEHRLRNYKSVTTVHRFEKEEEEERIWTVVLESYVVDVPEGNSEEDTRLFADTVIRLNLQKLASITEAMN
For `L8S`, “relative binding score” read 81.7%.
Under “relative binding score”, `I133S` is recorded as 111%.
`I52T` — result for “relative binding score”: 106%.
`R24W`: “relative binding score” 83.4%.
`N22D`: “relative binding score” 100%.
For `G81Q`, “relative binding score” read 49.5%.
`N77F` — result for “relative binding score”: 99.4%.
`H34I` — result for “relative binding score”: 98.1%.
`E139V` — result for “relative binding score”: 98.6%.
`L94A` — result for “relative binding score”: 63.9%.
`Q167T` — result for “relative binding score”: 98.3%.
For `E127S`, “relative binding score” read 105%.
`C72I`: “relative binding score” 93.9%.
Under “relative binding score”, `D65S` is recorded as 97.3%.
For `L166A`, “relative binding score” read 12.4%.
`K54Y` — result for “relative binding score”: -3.43%.
Under “relative binding score”, `D96R` is recorded as 40%.
For `S104E`, “relative binding score” read 76.8%.
Under “relative binding score”, `G108K` is recorded as 46.2%.
Under “relative binding score”, `D48T` is recorded as 67.4%.
`Q10L` — result for “relative binding score”: 94%.
Under “relative binding score”, `I133N` is recorded as 116%.
Under “relative binding score”, `A175V` is recorded as 96.3%.
Under “relative binding score”, `R163N` is recorded as 93%.

Sample 3
Target: CCNB1, cyclin fold, Cln2 fusion (human)
Technique: yeast growth competition, sequencing
Medium: yeast
Setting: weak parent motif
Baseline: not given
Reading: higher = stronger binding
Starting sequence: CDC25A docking peptide (human); PPHRRRLLFACSP
`PPHRWRLLFACSP [R5W]`: “normalised enrichment score” 0.284.
`PPHRRRLLFANSP [C11N]` — result for “normalised enrichment score”: -0.237.
Under “normalised enrichment score”, `VPHRRRLLFACSP [P1V]` is recorded as -0.111.
`PPHRRRLLFTCSP [A10T]`: “normalised enrichment score” 1.1.
For `PPHTRRLLFACSP [R4T]`, “normalised enrichment score” read 0.306.
`PPHRRRLDFACSP [L8D]` — result for “normalised enrichment score”: 0.465.
`PPHRRRLLSACSP [F9S]` — result for “normalised enrichment score”: 1.21.
`WPHRRRLLFACSP [P1W]` — result for “normalised enrichment score”: 0.46.
`PPHRRHLLFACSP [R6H]` — result for “normalised enrichment score”: 0.193.
`PPHRRRALFACSP [L7A]` — result for “normalised enrichment score”: 0.904.
For `PPHRRRLLFACFP [S12F]`, “normalised enrichment score” read 0.223.
For `PPHRRRLLFACGP [S12G]`, “normalised enrichment score” read 0.989.
For `PPHRRRLQFACSP [L8Q]`, “normalised enrichment score” read -0.266.
`PPHLRRLLFACSP [R4L]`: “normalised enrichment score” 1.37.
`PPHRRRLLFFCSP [A10F]` — result for “normalised enrichment score”: 0.815.
For `PPHRRRLLAACSP [F9A]`, “normalised enrichment score” read 1.33.
`PPHRMRLLFACSP [R5M]`: “normalised enrichment score” 0.808.
Under “normalised enrichment score”, `PPHYRRLLFACSP [R4Y]` is recorded as 0.781.

Sample 4
Target: Interferon regulatory factor 3, full length, phosphomimetic (IRF3, Homo sapiens, UniProt Q14653, residues 1-427, S386D/S396D/S398D/S402D/T404D/S405D)
Technique: protein-binding microarray
Molecule type: double-stranded DNA, one strand shown
Medium: in vitro
Tested at: 2540 nM top
Setting: 60-bp whole probe
Together with: salmon DNA 0.4 mg/ml
Baseline: random background probes
Reading: higher = stronger binding
Constant ends, left off below: GCCTAGCAC … GTCTTGATTCGCTTGACGCTGCTG
Target sequence (chain): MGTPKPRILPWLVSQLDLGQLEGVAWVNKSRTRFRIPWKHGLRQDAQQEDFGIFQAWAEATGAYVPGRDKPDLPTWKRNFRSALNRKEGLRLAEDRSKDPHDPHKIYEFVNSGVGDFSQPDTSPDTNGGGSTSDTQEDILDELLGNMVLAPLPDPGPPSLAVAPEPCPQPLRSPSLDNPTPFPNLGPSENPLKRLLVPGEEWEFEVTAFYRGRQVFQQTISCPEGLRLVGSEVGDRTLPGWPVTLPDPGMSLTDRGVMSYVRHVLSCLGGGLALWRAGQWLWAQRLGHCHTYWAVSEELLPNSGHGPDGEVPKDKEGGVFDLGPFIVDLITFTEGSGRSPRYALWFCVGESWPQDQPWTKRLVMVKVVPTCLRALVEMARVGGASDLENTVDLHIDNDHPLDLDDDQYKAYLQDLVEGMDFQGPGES
`GACGCTTTCGGGTATCGGGACGTGCTA` — result for “fitted relative affinity”: 2.01 z-score.
`TTATATATCAGTCTCGATTAGTGCTAG`: “fitted relative affinity” 1.31 z-score.
`TTAGAACTGAGTCTCGATGAGTGCTAG` — result for “fitted relative affinity”: -0.641 z-score.
Under “fitted relative affinity”, `GACGACTTCAGTTCCGAGACGTGCTAG` is recorded as 0.279 z-score.
For `CTGGAATCAATTTATTGACCGTGCTAG`, “fitted relative affinity” read -0.00614 z-score.
`GACGGTCTCCTACCGCTGACGTGCTAG`: “fitted relative affinity” 0.661 z-score.
Under “fitted relative affinity”, `ATAGGTATCGGGTATCGGTTAGTGCTA` is recorded as 2.16 z-score.
For `GACGATTTCAGACTGGACACGTGCTAG`, “fitted relative affinity” read 0.981 z-score.
`GTAGGTCTCGGTTTCGGTTAGTGCTAG` — result for “fitted relative affinity”: 5.2 z-score.
For `TTAGGTCTCGGGCTCGGTTAGTGCTAG`, “fitted relative affinity” read -0.609 z-score.
`TTAGGTCTACTTCTCCTTTAGTGCTAG`: “fitted relative affinity” 0.793 z-score.
For `GACGGTATCCTTATCATGACGTGCTAG`, “fitted relative affinity” read 4.87 z-score.
Under “fitted relative affinity”, `CACGGTATCGGTTTCGGGACGTGCTAG` is recorded as 7.2 z-score.
For `TTAGGTCTCCTACCGCTTTAGTGCTAG`, “fitted relative affinity” read 0.343 z-score.
`GACGGACTGGTTATCCTGACGTGCTAG` — result for “fitted relative affinity”: -0.0623 z-score.
Under “fitted relative affinity”, `CTTTCTTTCCATACTGCAAGGTGCTAG` is recorded as 7.5 z-score.
`TCAACTTTCTTTCAAATACTGTGCTAG` — result for “fitted relative affinity”: 1.28 z-score.
For `GAAGATATCGGGTATCGAGACGTGCTA`, “fitted relative affinity” read -0.0587 z-score.
Under “fitted relative affinity”, `GACGGATTCCTTATCCTGACGTGCTAG` is recorded as 3.58 z-score.
`GACGGTATCAACACTGGGGACGTGCTA`: “fitted relative affinity” 0.274 z-score.
For `GACGGTCTCCTACTGCTTACGTGCTAG`, “fitted relative affinity” read 1.02 z-score.
`TCAGATTTCAGACTGGATTAGTGCTAG` — result for “fitted relative affinity”: 1.15 z-score.
Under “fitted relative affinity”, `TCACGGCTCGTTATCCTACTGTGCTAG` is recorded as 0.184 z-score.
Under “fitted relative affinity”, `TTTGGTTTCGACACTGGGTTAGTGCTA` is recorded as 3.34 z-score.
Under “fitted relative affinity”, `TTAGGACTGCGGACTGGGTTAGTGCTA` is recorded as -0.837 z-score.

Repeated from above (sample 4):
For `CTGGAATCAATTTATTGACCGTGCTAG`, “fitted relative affinity” read -0.00614 z-score.
`GACGGTCTCCTACCGCTGACGTGCTAG`: “fitted relative affinity” 0.661 z-score.
Under “fitted relative affinity”, `ATAGGTATCGGGTATCGGTTAGTGCTA` is recorded as 2.16 z-score.
For `GACGATTTCAGACTGGACACGTGCTAG`, “fitted relative affinity” read 0.981 z-score.
